{"data": "Results collected from several papers", "note": "A part holds a random share of what one study measured. Changes are numbered by the printed parent chain."}
{"data": "Study 1", "target": "Histone acetyltransferase KAT6A, both winged helices, GST fusion (KAT6A, Homo sapiens, UniProt Q92794, residues 1-181)", "technique": "protein binding microarray", "form": "double-stranded DNA, one strand shown", "sample": "in vitro", "tested at": "not given", "notes": "8-mer, flanks averaged, mean of 2 arrays, mostly near background", "reference": "not given", "direction": "higher = stronger binding", "Target sequence (chain)": "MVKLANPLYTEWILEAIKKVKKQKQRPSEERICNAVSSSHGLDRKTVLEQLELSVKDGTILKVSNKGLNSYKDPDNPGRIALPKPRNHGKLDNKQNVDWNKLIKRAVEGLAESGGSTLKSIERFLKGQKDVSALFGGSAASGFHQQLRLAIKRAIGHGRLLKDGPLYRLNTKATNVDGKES"}
{"Strand": "AGGGCTAT", "E-score": -0.222}
{"Strand": "AGGATAGC", "E-score": -0.00398}
{"Strand": "CACAATGA", "E-score": -0.268}
{"Strand": "GAAATAGA", "E-score": -0.222}
{"Strand": "ACGAAGAT", "E-score": -0.0374}
{"Strand": "CATCAAGC", "E-score": -0.0026}
{"Strand": "CGCGCGCA", "E-score": 0.399}
{"Strand": "AGTGGATG", "E-score": -0.111}
{"Strand": "AACGTTTA", "E-score": 0.0115}
{"Strand": "GAACTTCA", "E-score": -0.146}
{"Strand": "CCAAGTCA", "E-score": -0.186}
{"Strand": "TCAACTGA", "E-score": -0.178}
{"Strand": "CCAATTAC", "E-score": -0.0864}
{"Strand": "AAATCTTC", "E-score": -0.0405}
{"Strand": "CAGTATGA", "E-score": -0.173}
{"Strand": "ATTACGAC", "E-score": -0.0135}
{"Strand": "CGTCCATA", "E-score": 0.0132}
{"Strand": "GGCCTCTA", "E-score": -0.032}
{"Strand": "GCGACGCC", "E-score": 0.308}
{"Strand": "ATATTAAA", "E-score": 0.0445}
{"Strand": "AATCTCGG", "E-score": 0.137}
{"Strand": "AGTCGTGA", "E-score": -0.181}
{"Strand": "ACGTATTC", "E-score": 0.0764}
{"Strand": "CGACACCC", "E-score": -0.0326}
{"Strand": "CTGATCCA", "E-score": -0.189}
{"data": "Study 2", "target": "ABI1, truncated, D143A, DHFR fusion (Arabidopsis thaliana, UniProt P49597)", "technique": "DHFR PCA, dose-response", "sample": "yeast", "notes": "Hill fit, not affinity, not high confidence", "together with": "(+)-ABA, dose series", "direction": "lower = more sensitive", "starting sequence": "PYL1, truncated, DHFR fusion (Arabidopsis thaliana, UniProt Q8VZS8); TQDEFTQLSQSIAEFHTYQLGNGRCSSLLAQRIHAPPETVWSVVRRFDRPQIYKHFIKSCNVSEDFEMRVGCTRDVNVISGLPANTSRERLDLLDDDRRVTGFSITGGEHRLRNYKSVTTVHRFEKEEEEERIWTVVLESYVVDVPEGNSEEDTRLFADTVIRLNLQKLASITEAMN"}
{"Substitution": "L138N", "ABA EC50 [µM]": 1790}
{"Substitution": "L169Y", "ABA EC50 [µM]": 241}
{"Substitution": "L82E", "ABA EC50 [µM]": 0.212}
{"Substitution": "R74D", "ABA EC50 [µM]": 56.3}
{"Substitution": "L156P", "ABA EC50 [µM]": 4.65}
{"Substitution": "G81W", "ABA EC50 [µM]": 2.56}
{"Substitution": "G108I", "ABA EC50 [µM]": 1640}
{"Substitution": "L169I", "ABA EC50 [µM]": 182}
{"Substitution": "F157G", "ABA EC50 [µM]": 20.3}
{"Substitution": "R74Q", "ABA EC50 [µM]": 31}
{"Substitution": "V121D", "ABA EC50 [µM]": 426}
{"Substitution": "Q51P", "ABA EC50 [µM]": 531}
{"Substitution": "R45D", "ABA EC50 [µM]": 7.7}
{"Substitution": "L169N", "ABA EC50 [µM]": 0.638}
{"Substitution": "V44Y", "ABA EC50 [µM]": 1390}
{"Substitution": "Y141G", "ABA EC50 [µM]": 17.2}
{"Substitution": "N149Q", "ABA EC50 [µM]": 241}
{"Substitution": "V136P", "ABA EC50 [µM]": 0.0136}
{"Substitution": "T119Y", "ABA EC50 [µM]": 956}
{"Substitution": "V143W", "ABA EC50 [µM]": 7.79}
{"Substitution": "T135E", "ABA EC50 [µM]": 487}
{"Substitution": "S140P", "ABA EC50 [µM]": 0.014}
{"data": "Study 3", "target": "CEBPA, bZIP domain (human)", "technique": "DHFR protein complementation", "sample": "yeast", "notes": "single substitutions, most at no-binding floor", "reference": "wild-type JUN-FOS pair", "direction": "higher = stronger binding", "starting sequence": "JUN, bZIP domain (human); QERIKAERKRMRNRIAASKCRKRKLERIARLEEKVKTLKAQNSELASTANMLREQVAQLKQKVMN; partner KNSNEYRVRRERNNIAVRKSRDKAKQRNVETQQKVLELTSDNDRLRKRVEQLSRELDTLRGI"}
{"Substitution": "K34D", "binding fitness [natural log]": -1.52}
{"Substitution": "K39Q", "binding fitness [natural log]": -1.4}
{"Substitution": "E33R", "binding fitness [natural log]": -1.43}
{"Substitution": "A29T", "binding fitness [natural log]": -1.42}
{"Substitution": "E32A", "binding fitness [natural log]": -1.39}
{"Substitution": "A29L", "binding fitness [natural log]": -1.41}
{"Substitution": "Q41R", "binding fitness [natural log]": -1.44}
{"Substitution": "S43Y", "binding fitness [natural log]": -1.49}
{"Substitution": "Q41I", "binding fitness [natural log]": -1.35}
{"Substitution": "E44H", "binding fitness [natural log]": -1.5}
{"Substitution": "E33M", "binding fitness [natural log]": -1.44}
{"Substitution": "R30L", "binding fitness [natural log]": -1.39}
{"Substitution": "A40G", "binding fitness [natural log]": -1.41}
{"Substitution": "K34W", "binding fitness [natural log]": -1.52}
{"Substitution": "S47Y", "binding fitness [natural log]": -1.46}
{"Substitution": "E33W", "binding fitness [natural log]": -1.38}
{"Substitution": "T48W", "binding fitness [natural log]": -1.36}
{"Substitution": "R30I", "binding fitness [natural log]": -1.39}
{"Substitution": "Q41C", "binding fitness [natural log]": -1.44}
{"Substitution": "K39H", "binding fitness [natural log]": -1.48}
{"Substitution": "A29R", "binding fitness [natural log]": -1.48}
{"Substitution": "L45W", "binding fitness [natural log]": -1.48}
{"Substitution": "A46W", "binding fitness [natural log]": -1.46}
{"Substitution": "A49S", "binding fitness [natural log]": -1.52}
{"Substitution": "I28P", "binding fitness [natural log]": -1.46}
{"data": "Study 4", "target": "CCNB1, cyclin fold, Cln2 fusion (human)", "technique": "yeast growth competition, sequencing", "sample": "yeast", "notes": "strong parent motif", "reference": "not given", "direction": "higher = stronger binding", "starting sequence": "BRCA2 docking peptide (human); PSIKRNLLNEFDR"}
{"Substitution": "P1R", "normalised enrichment score": 1.88}
{"Substitution": "R5K F11L", "normalised enrichment score": 0.627}
{"Substitution": "L8T", "normalised enrichment score": 0.885}
{"Substitution": "L7S", "normalised enrichment score": -0.126}
{"Substitution": "R13H", "normalised enrichment score": 1.53}
{"Substitution": "N9K", "normalised enrichment score": 2.87}
{"Substitution": "E10S", "normalised enrichment score": 0.0464}
{"Substitution": "I3W", "normalised enrichment score": 1.71}
{"Substitution": "L8S", "normalised enrichment score": 1.38}
{"Substitution": "L8C", "normalised enrichment score": 1.09}
{"Substitution": "L8N", "normalised enrichment score": 0.565}
{"Substitution": "K4A", "normalised enrichment score": 3.08}
{"Substitution": "F11L", "normalised enrichment score": 1.15}
{"Substitution": "L7A", "normalised enrichment score": 0.474}
{"Substitution": "E10T", "normalised enrichment score": -1.2}
{"Substitution": "E10I", "normalised enrichment score": 0.727}
{"Substitution": "N9W", "normalised enrichment score": 2.6}
{"Substitution": "N6R", "normalised enrichment score": 0.733}
{"Substitution": "S2Y", "normalised enrichment score": 1.37}
{"Substitution": "R13W", "normalised enrichment score": 2.62}
{"Substitution": "E10K", "normalised enrichment score": -0.651}
{"Substitution": "P1C", "normalised enrichment score": 4}
{"Substitution": "L7H", "normalised enrichment score": 0.037}
{"Substitution": "L7C", "normalised enrichment score": 0.556}
{"Substitution": "N9F", "normalised enrichment score": 1.98}
{"data": "Study 5", "target": "Ras GTPase-activating protein-binding protein 1, RRM domain (G3BP1, Homo sapiens, UniProt Q13283)", "technique": "RNA Bind-n-Seq", "form": "RNA", "sample": "in vitro", "tested at": "1 µM", "notes": "whole 134-nt RNA, ends assumed", "together with": "150 mM KCl", "reference": "input library", "direction": "higher = stronger binding", "constant ends, left off below": "GGGAGUUCUACAGUCCGACGAUC … UGGAAUUCUCGGGUGUCAAGG", "sequence of UniProt Q13283 (whole entry, looked up)": "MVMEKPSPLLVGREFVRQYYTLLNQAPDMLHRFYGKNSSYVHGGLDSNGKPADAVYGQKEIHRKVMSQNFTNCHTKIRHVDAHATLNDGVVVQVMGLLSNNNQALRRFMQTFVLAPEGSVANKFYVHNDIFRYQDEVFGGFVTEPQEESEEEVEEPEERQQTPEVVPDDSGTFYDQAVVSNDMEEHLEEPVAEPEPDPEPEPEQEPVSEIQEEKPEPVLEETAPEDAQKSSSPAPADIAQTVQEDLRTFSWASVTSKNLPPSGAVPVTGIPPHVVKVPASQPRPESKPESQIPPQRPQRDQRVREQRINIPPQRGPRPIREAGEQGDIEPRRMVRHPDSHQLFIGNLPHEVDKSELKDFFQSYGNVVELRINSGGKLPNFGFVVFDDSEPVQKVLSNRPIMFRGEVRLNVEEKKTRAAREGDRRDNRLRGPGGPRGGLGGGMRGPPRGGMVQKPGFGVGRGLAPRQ"}
{"Strand": "UGGCCCUGGUGGCAUGCGGGGAGGAAGAGGUGGCCUCAUGGAUCGUGGGGGUCCCGGUGGAAUGUUCAGAGGUGGCCGUGGUGGAGACAG", "log2 enrichment": 0.524}
{"Strand": "CCUCAAGUCCUGUGCUACACAUCGUAUGUACCGAAUCGGGCCGGCCGGCCGGAAAGUAUUAUGUUACGCCGUUCGGAUCUGCACUUCCAG", "log2 enrichment": -0.509}
{"Strand": "UGGGAGGUGGAUUUUGUUUAUUUUUUUAGCUCAUUUCCAGGGGUGGGAAUUUUUUUUUAAUAUGUGUCAUGAAUAAAGUUGUCUUUGAAA", "log2 enrichment": 2.07}
{"Strand": "UCAAGUCCUGUGCUACACAUCGUAUGUACCGAAUCGGAAAGGAGGUUUUUUUGGAAAGUAUUAUGUUACGCCGUUCGGAUCUGCACUUCC", "log2 enrichment": -0.278}
{"Strand": "UCAAGUCCUGUGCUACACAUCGUAUGUACCGAAUCGGGAAAGGGUGGGAAAGGGAAAGUAUUAUGUUACGCCGUUCGGAUCUGCACUUCC", "log2 enrichment": 0.811}
{"Strand": "GCAGGAAGUAAAAACAAAUGGAAAUGCUUCGGAUAGUGGCAGGGGUGGGGGUUGCUAAGGAAAGGGUGGGAUCGGAGUGGGUAAAGAGUU", "log2 enrichment": 0.866}
{"Strand": "CACAGACAACACGCACCCACACAGACACAGAGGGAAGGGGUUGGGAUGGGGACAGGGUGCACAGCAGGGCGGGCUAGGACCCCAGCCCCU", "log2 enrichment": -0.475}
{"Strand": "CACAGACAACACGCACCCACACAGACACAGAGGGAAGGGGUUGGGAUGGGGACAGGGUGCAAAACAGGGCGGGGUAGGACCCCAGCCCCU", "log2 enrichment": -0.129}
{"Strand": "UUAGGCACUUGUUGGGCUCAUCACCGUUGUGUGGAGUGGUCACUAGGAGUAUGCCAGAUGGAAGAACCAUUGUUAGUGAACGUGGACAAA", "log2 enrichment": -0.231}
{"Strand": "CUCAAGUCCUGUGCUACACAUCGUAUGUACCGAAUCGGUUUGGUUUGGUUUGGGAAAGUAUUAUGUUACGCCGUUCGGAUCUGCACUUCC", "log2 enrichment": -0.291}
{"note": "Repeated from above (study 5):"}
{"Strand": "UGGCCCUGGUGGCAUGCGGGGAGGAAGAGGUGGCCUCAUGGAUCGUGGGGGUCCCGGUGGAAUGUUCAGAGGUGGCCGUGGUGGAGACAG", "log2 enrichment": 0.524}
{"Strand": "UUAGGCACUUGUUGGGCUCAUCACCGUUGUGUGGAGUGGUCACUAGGAGUAUGCCAGAUGGAAGAACCAUUGUUAGUGAACGUGGACAAA", "log2 enrichment": -0.231}
{"Strand": "CACAGACAACACGCACCCACACAGACACAGAGGGAAGGGGUUGGGAUGGGGACAGGGUGCACAGCAGGGCGGGCUAGGACCCCAGCCCCU", "log2 enrichment": -0.475}
{"Strand": "UCAAGUCCUGUGCUACACAUCGUAUGUACCGAAUCGGGAAAGGGUGGGAAAGGGAAAGUAUUAUGUUACGCCGUUCGGAUCUGCACUUCC", "log2 enrichment": 0.811}
{"Strand": "CCUCAAGUCCUGUGCUACACAUCGUAUGUACCGAAUCGGGCCGGCCGGCCGGAAAGUAUUAUGUUACGCCGUUCGGAUCUGCACUUCCAG", "log2 enrichment": -0.509}
{"Strand": "CACAGACAACACGCACCCACACAGACACAGAGGGAAGGGGUUGGGAUGGGGACAGGGUGCAAAACAGGGCGGGGUAGGACCCCAGCCCCU", "log2 enrichment": -0.129}
{"Strand": "GCAGGAAGUAAAAACAAAUGGAAAUGCUUCGGAUAGUGGCAGGGGUGGGGGUUGCUAAGGAAAGGGUGGGAUCGGAGUGGGUAAAGAGUU", "log2 enrichment": 0.866}
{"Strand": "UCAAGUCCUGUGCUACACAUCGUAUGUACCGAAUCGGAAAGGAGGUUUUUUUGGAAAGUAUUAUGUUACGCCGUUCGGAUCUGCACUUCC", "log2 enrichment": -0.278}
{"Strand": "UGGGAGGUGGAUUUUGUUUAUUUUUUUAGCUCAUUUCCAGGGGUGGGAAUUUUUUUUUAAUAUGUGUCAUGAAUAAAGUUGUCUUUGAAA", "log2 enrichment": 2.07}
{"Strand": "CUCAAGUCCUGUGCUACACAUCGUAUGUACCGAAUCGGUUUGGUUUGGUUUGGGAAAGUAUUAUGUUACGCCGUUCGGAUCUGCACUUCC", "log2 enrichment": -0.291}
